# Measurements from different studies.
# Lines come from different studies, so protocols differ. Numbers after ± are the reported error.
SMILES,tested on,test,system,setting,endpoint,value
N=C(N)NCCC[C@@H]1NC(=O)[C@H](CCCNC(=N)N)NC(=O)[C@@H](CCCNC(=N)N)NC(=O)[C@H](C(c2ccccc2)c2ccccc2)NC(=O)[C@H](C(c2ccccc2)c2ccccc2)NC(=O)[C@H](C(c2ccccc2)c2ccccc2)NC(=O)[C@H](CCCNC(=N)N)NC1=O,Acinetobacter baumannii,,"NCTC 13304, carbapenem-resistant",,MIC,16 µg/mL
Oc1c(Br)cc(Br)c2nc3cc(C(F)(F)F)ccc3nc12,Acinetobacter baumannii,broth microdilution,ATCC 1794,,MIC,7.88 µg/mL
CN[C@@H]1[C@H](O)[C@H](NC)[C@H]2O[C@]3(O)[C@H](O[C@@H]2[C@H]1O)O[C@H](C)C[C@H]3NC(=O)Cc1ccccc1,Acinetobacter baumannii,"microbial growth, broth dilution",ATCC19606,,MIC,> 200 µg/mL
CN[C@H](CC(C)C)C(=O)N[C@H]1C(=O)N[C@@H](CC(N)=O)C(=O)N[C@H]2C(=O)N[C@H]3C(=O)N[C@H](C(=O)N[C@H](C(=O)N[C@@H](CCCNC(=N)N)C(N)=O)c4cc(O)cc(O)c4-c4cc3ccc4O)[C@H](O)c3ccc(c(Cl)c3)Oc3cc2cc(c3O[C@@H]2O[C@H](CO)[C@@H](O)[C@H](O)[C@H]2O[C@H]2C[C@](C)(NCc3ccc(OCc4cn(CC(=O)N[C@H](C(=O)N[C@@H](CCN)C(=O)N[C@H]5CCNC(=O)[C@H]([C@@H](C)O)NC(=O)[C@H](CCN)NC(=O)[C@H](CCN)NC(=O)[C@H](CC(C)C)NC(=O)[C@@H](CC(C)C)NC(=O)[C@H](CCN)NC5=O)[C@@H](C)O)nn4)c(OC)c3)[C@H](O)[C@H](C)O2)Oc2ccc(cc2Cl)[C@H]1O,Acinetobacter baumannii,broth microdilution,BAA-747,,MIC,11 µM
CC[C@H](C)[C@H](NC(=O)[C@@H](CCCNC(=N)N)NC(=O)[C@H](CCCNC(=N)N)NC(=O)[C@@H]1CCCN1C(=O)[C@@H]1CCCN1C(=O)[C@H](CCCNC(=N)N)NC(=O)[C@@H]1CCCN1C(=O)[C@H](CCCNC(=N)N)NC(=O)[C@@H]1CCCN1C(=O)[C@H](CC(C)C)NC(=O)[C@H](Cc1ccccc1)NC(=O)[C@@H]1CCCN1C(=O)[C@@H]1CCCN1C(=O)[C@H](CCCCN)NC(=O)[C@H](CC(=O)O)NC(=O)[C@@H](N)C(C)C)C(=O)N[C@@H](Cc1ccc(O)cc1)C(=O)N[C@@H](CC(N)=O)C(=O)N[C@H](CCCNC(=N)N)C(N)=O,Acinetobacter baumannii,broth microdilution,DSM 30008,"18 h, 37 °C, 25% MHB2",MIC,64 µg/mL
CCCCCCCC(=O)N[C@@H](CCN)C(=O)N[C@H](C(=O)N[C@@H](CCN)C(=O)N[C@H]1CCNC(=O)[C@H](C)NC(=O)[C@H](CCN)NC(=O)[C@H](CCN)NC(=O)[C@H](CC(C)C)NC(=O)[C@@H](Cc2ccccc2)NC(=O)[C@H](CCN)NC1=O)[C@@H](C)O,Acinetobacter baumannii,CLSI broth microdilution,"5075, CAMHB","20 h, 37 °C",MIC,1 µg/mL
CCCC[C@H](NC(=O)[C@H](Cc1ccc(O)cc1)NC(=O)[C@@H]1CCCN1C(=O)[C@@H]1CCCN1C(=O)[C@H](CCCCN)NC(=O)[C@H](CC(=O)O)NC(=O)[C@@H](N)C(C)C)C(=O)N1CCC[C@H]1C(=O)N[C@@H](CCCNC(=N)N)C(=O)N1CCC[C@H]1C(=O)N[C@@H](CCCNC(=N)N)C(=O)N1CCC[C@H]1C(=O)N1CCC[C@H]1C(=O)N[C@@H](CCCNC(=N)N)C(=O)N[C@H](CCCNC(=N)N)C(=O)N[C@H](C(=O)N[C@@H](Cc1ccc(O)cc1)C(=O)N[C@@H](CC(N)=O)C(=O)N[C@H](CCCNC(=N)N)C(N)=O)[C@@H](C)CC,Acinetobacter baumannii,broth microdilution,DSM 30008,"18 h, 37 °C, 25% MHB2",MIC,32 µg/mL
O=[N+]([O-])c1cc(Cl)c2cccnc2c1O,Acinetobacter baumannii,broth microdilution,,carbapenem-resistant clinical isolate,MIC,4 µg/mL
CC[C@H](C)[C@H](NC(=O)[C@@H](CCCNC(=N)N)NC(=O)[C@H](CCCNC(=N)N)NC(=O)[C@@H](NC(=O)[C@H](Cc1c[nH]c2ccccc12)NC(=O)[C@H](CCCNC(=N)N)NC(=O)[C@@H]1CCCN1C(=O)[C@H](CCCNC(=N)N)NC(=O)[C@@H]1CCCN1C(=O)[C@H](CC(C)C)NC(=O)[C@H](Cc1ccc(O)cc1)NC(=O)[C@@H]1CCCN1C(=O)[C@@H]1CCCN1C(=O)[C@H](CCCCN)NC(=O)[C@H](CC(=O)O)NC(=O)[C@@H](N)C(C)C)[C@@H](C)O)C(=O)N[C@@H](Cc1ccc(O)cc1)C(=O)N[C@@H](CC(N)=O)C(=O)N[C@H](CCCNC(=N)N)C(N)=O,Acinetobacter baumannii,broth microdilution,DSM 30008,"18 h, 37 °C, 25% MHB2",MIC,16 µg/mL
CC[C@H](C)[C@H](NC(=O)CN)C(=O)NCC(=O)N[C@@H](C)C(=O)N[C@H](C(=O)N[C@@H](CC(C)C)C(=O)N[C@@H](CCCCN)C(=O)N[C@H](C(=O)N[C@@H](CC(C)C)C(=O)N[C@H](C(=O)N[C@H](C(=O)NCC(=O)N[C@@H](CC(C)C)C(=O)N1CCC[C@H]1C(=O)N[C@@H](C)C(=O)N[C@@H](CC(C)C)C(=O)N[C@H](C(=O)N[C@@H](CO)C(=O)N[C@@H](Cc1c[nH]c2ccccc12)C(=O)N[C@H](C(=O)N[C@@H](CCCCN)C(=O)N[C@@H](CCCNC(=N)N)C(=O)N[C@@H](CCCCN)C(=O)N[C@@H](CCCNC(=N)N)C(=O)N[C@@H](CCC(N)=O)C(=O)N[C@@H](CCC(N)=O)C(N)=O)[C@@H](C)CC)[C@@H](C)CC)[C@@H](C)O)[C@@H](C)O)C(C)C)C(C)C,Acinetobacter baumannii,CLSI broth microdilution,ATCC 19606,"18 h, 37 °C",MIC,2 µM
O=C1NC2(CC2)COc2ncc(F)cc2[C@H]2COCCN2c2ccn3ncc1c3n2,,,"Sprague-Dawley rat, male, adrenals","oral, 10 mg/kg/day, 4 weeks, end of treatment",organ-to-body weight ratio,0.017 ± 0.003%
CC[C@H](C)[C@H](NC(=O)[C@H](Cc1c[nH]c2ccccc12)NC(=O)[C@H](CCCNC(=N)N)NC(=O)[C@@H]1CCCN1C(=O)[C@H](CCCNC(=N)N)NC(=O)[C@@H]1CCCN1C(=O)[C@H](CC(C)C)NC(=O)[C@H](Cc1ccc(O)cc1)NC(=O)[C@@H]1CCCN1C(=O)[C@@H]1CCCN1C(=O)[C@H](CCCCN)NC(=O)[C@H](CC(=O)O)NC(=O)[C@@H](N)C(C)C)C(=O)N[C@@H](CCCNC(=N)N)C(=O)N[C@H](CCCNC(=N)N)C(=O)N[C@H](C(=O)N[C@@H](Cc1ccc(O)cc1)C(=O)N[C@@H](CC(N)=O)C(=O)N[C@H](CCCNC(=N)N)C(N)=O)[C@@H](C)CC,Acinetobacter baumannii,broth microdilution,DSM 30008,"18 h, 37 °C, 25% MHB2",MIC,16 µg/mL
CCCCCCCC(=O)N[C@@H](CCN)C(=O)N[C@@H](C)C(=O)N[C@@H](CCN)C(=O)N[C@H]1CCNC(=O)[C@H]([C@@H](C)O)NC(=O)[C@H](CCN)NC(=O)[C@H](CCN)NC(=O)[C@H](CC(C)C)NC(=O)[C@@H](Cc2ccccc2)NC(=O)[C@H](CCN)NC1=O,Acinetobacter baumannii,CLSI broth microdilution,"5075, CAMHB","20 h, 37 °C",MIC,> 512 µg/mL
CCn1c(-c2ccc(F)cc2)c(-c2ccc(F)cc2)n(Cc2ccccc2)c1=[Se],Acinetobacter baumannii,broth microdilution,carbapenem-resistant,24 h,MIC,> 40 µM
CCCCCCCC(=O)N[C@@H](CCN)C(=O)N[C@H](C(=O)N[C@@H](CCN)C(=O)N[C@H]1CCNC(=O)[C@H]([C@@H](C)O)NC(=O)[C@H](CCN)NC(=O)[C@H](CCN)NC(=O)[C@H](Cc2ccccc2)NC(=O)[C@@H](CCCc2ccccc2)NC(=O)[C@H](CCN)NC1=O)[C@@H](C)O,Acinetobacter baumannii,broth microdilution,colistin-resistant isolates,,MIC,1 to 2 µg/mL
CC[C@H](C)[C@H](NC(=O)[C@@H](CCCNC(=N)N)NC(=O)[C@H](CCCNC(=N)N)NC(=O)[C@@H]1CCCN1C(=O)[C@@H]1CCCN1C(=O)[C@H](CCCNC(=N)N)NC(=O)[C@@H]1CCCN1C(=O)[C@H](CCCNC(=N)N)NC(=O)[C@@H]1CCCN1C(=O)[C@H](CC(C)C)NC(=O)[C@H](Cc1ccc(O)c([N+](=O)[O-])c1)NC(=O)[C@@H]1CCCN1C(=O)[C@@H]1CCCN1C(=O)[C@H](CCCCN)NC(=O)[C@H](CC(=O)O)NC(=O)[C@@H](N)C(C)C)C(=O)N[C@@H](Cc1ccc(O)cc1)C(=O)N[C@@H](CC(N)=O)C(=O)N[C@H](CCCNC(=N)N)C(N)=O,Acinetobacter baumannii,broth microdilution,DSM 30008,"18 h, 37 °C, 25% MHB2",MIC,64 µg/mL
CCCCCCCC(=O)N[C@@H](CCN)C(=O)N[C@H](C(=O)N[C@@H](CCN)C(=O)N[C@H]1CCNC(=O)[C@H]([C@@H](C)O)NC(=O)[C@H](CCN)NC(=O)[C@H](CCN)NC(=O)[C@H](CC(C)C)NC(=O)[C@@H](Cc2ccccc2)NC(=O)[C@H](CCN)NC1=O)[C@@H](C)O,Acinetobacter baumannii,broth microdilution,colistin-resistant isolates,,MIC,8 µg/mL
CC[C@H](C)[C@H](NC(=O)[C@H](C)NC(=O)[C@@H](NC(=O)[C@H](CC(=O)O)NC(=O)[C@H](CCCCN)NC(=O)[C@H](CO)NC(=O)[C@@H](NC(=O)[C@H](CC(N)=O)NC(=O)[C@H](C)NC(=O)[C@@H](NC(=O)[C@H](CCC(=O)O)NC(=O)[C@H](CCCCN)NC(=O)[C@@H](NC(=O)[C@@H](NC(=O)[C@H](Cc1c[nH]cn1)NC(=O)[C@H](CCCCN)NC(=O)[C@@H](NC(=O)[C@H](CCCCN)NC(=O)[C@H](CCCCN)NC(=O)[C@@H](NC(=O)[C@H](CC(C)C)NC(=O)[C@H](CCCCN)NC(=O)[C@H](CC(N)=O)NC(=O)[C@H](Cc1ccccc1)NC(=O)[C@H](CCCNC(=N)N)NC(=O)[C@H](CCCCN)NC(=O)[C@H](CCCNC(=N)N)NC(=O)[C@H](Cc1ccccc1)NC(=O)CN)C(C)C)C(C)C)[C@@H](C)O)[C@@H](C)CC)[C@@H](C)O)C(C)C)C(C)C)C(=O)N[C@H](C(=O)N[C@@H](C)C(=O)NCC(=O)N[C@@H](CO)C(=O)NCC(=O)N[C@H](C(=O)N[C@@H](C)C(=O)N[C@H](C(=O)NCC(=O)N[C@@H](C)C(=O)N[C@@H](C)C(=O)N[C@@H](CCSC)C(N)=O)C(C)C)C(C)C)C(C)C,Acinetobacter baumannii,,"ATCC 19606, CAMHB with 10% mouse serum",150 mM NaCl,MIC,0.5 µg/mL
CC(C)C[C@H](NC(=O)[C@H](CC(C)C)NC(=O)[C@H](CCCCN)NC(=O)[C@H](Cc1ccccc1)NC(=O)[C@@H](NC(=O)[C@H](CCCNC(=N)N)NC(=O)[C@H](CCCCN)NC(=O)[C@H](Cc1c[nH]c2ccccc12)NC(=O)[C@@H](NC(=O)[C@@H](N)CCCNC(=N)N)C(C)C)C(C)C)C(=O)N[C@@H](CCCCN)C(=O)N[C@@H](CCCNC(=N)N)C(=O)N[C@@H](Cc1ccc(O)cc1)C(=O)N[C@@H](Cc1c[nH]c2ccccc12)C(=O)N[C@@H](CCCNC(=N)N)C(N)=O,Acinetobacter baumannii,broth microdilution,18,,MIC,1.25 µg/mL
CCCCCCCC(=O)N[C@@H](CCN)C(=O)N[C@H](C(=O)N[C@@H](CCN)C(=O)N[C@H]1CCNC(=O)[C@H]([C@@H](C)O)NC(=O)[C@H](CCN)NC(=O)[C@H](CCN)NC(=O)[C@H](Cc2ccc(Cl)cc2)NC(=O)[C@@H](CC(C)C)NC(=O)[C@H](CCN)NC1=O)[C@@H](C)O,Acinetobacter baumannii,broth microdilution,colistin-resistant isolates,,MIC,1 to 2 µg/mL
